{"data": "Measured values collected from several papers", "note": "Parts stem from different laboratories: compare values within a part only."}
{"data": "Set 1", "target": "Histone acetyltransferase KAT6A, both winged helices, GST fusion (KAT6A, Homo sapiens, UniProt Q92794, residues 1-181)", "method": "protein binding microarray", "molecule type": "double-stranded DNA, one strand shown", "sample": "in vitro", "tested at": "not given", "notes": "8-mer, flanks averaged, mean of 2 arrays, mostly near background", "reference": "not given", "reading": "higher = stronger binding", "Residues (chain)": "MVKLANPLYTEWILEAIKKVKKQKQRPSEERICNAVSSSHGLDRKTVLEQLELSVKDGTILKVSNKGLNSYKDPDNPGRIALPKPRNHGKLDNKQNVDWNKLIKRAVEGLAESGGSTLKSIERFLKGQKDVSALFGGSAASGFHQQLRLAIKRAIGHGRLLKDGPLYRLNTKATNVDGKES"}
{"Strand": "AATTATAG", "E-score": -0.0249}
{"Strand": "CACCCAGG", "E-score": -0.163}
{"Strand": "CAGGACTC", "E-score": -0.17}
{"Strand": "CGAACCAG", "E-score": -0.111}
{"Strand": "CCAATCTC", "E-score": -0.308}
{"Strand": "AATACACC", "E-score": -0.0435}
{"Strand": "TCCTAGCA", "E-score": -0.0299}
{"Strand": "ATTTCGAG", "E-score": -0.0439}
{"Strand": "CCGAGACC", "E-score": 0.158}
{"Strand": "AAAAGCTG", "E-score": -0.0469}
{"Strand": "CCTCACCC", "E-score": -0.104}
{"Strand": "GCGTCCCA", "E-score": -0.00317}
{"Strand": "ATCGGACA", "E-score": 0.0505}
{"Strand": "CGGAGCAC", "E-score": 0.119}
{"Strand": "ACCGACTC", "E-score": 0.0485}
{"Strand": "CTAGGAGA", "E-score": -0.209}
{"Strand": "AAACTGTA", "E-score": -0.0175}
{"Strand": "CTAAGCTA", "E-score": -0.141}
{"Strand": "ATGATTGG", "E-score": -0.15}
{"Strand": "TGAATTCA", "E-score": -0.12}
{"data": "Set 2", "target": "RING finger protein unkempt homolog, zinc fingers 1-6, GST-SBP tag (UNK, Homo sapiens, UniProt Q9C0B0, residues 30-357)", "method": "RNA Bind-n-Seq", "molecule type": "RNA", "sample": "in vitro", "tested at": "not given", "notes": "RNA with constant flanks, ends assumed", "reference": "input RNA pool", "reading": "higher = stronger binding", "constant ends, left off below": "GGGAGUUCUACAGUCCGACGAUC … CAACAGAGGAUUGAGCAUCA", "UniProt Q9C0B0, sequence (30-357, looked up)": "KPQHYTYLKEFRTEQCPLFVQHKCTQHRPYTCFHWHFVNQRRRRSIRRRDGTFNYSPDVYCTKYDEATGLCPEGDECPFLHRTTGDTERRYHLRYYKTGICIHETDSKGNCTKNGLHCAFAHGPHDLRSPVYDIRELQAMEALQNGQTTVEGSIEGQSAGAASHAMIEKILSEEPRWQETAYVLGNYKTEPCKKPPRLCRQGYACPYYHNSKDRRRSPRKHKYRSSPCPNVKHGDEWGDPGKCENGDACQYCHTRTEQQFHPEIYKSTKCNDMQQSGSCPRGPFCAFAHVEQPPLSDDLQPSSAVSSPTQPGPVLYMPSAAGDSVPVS"}
{"Strand": "CGUUCUCUGCCACCUCCUUCCCCUGCCCACUUGGCUGCUUUAAGUGUUGCAGUCAUUGAAUCCGCAAAAGAACAUGGAAUAACAGAUGAUGACCUCAGAGUCCGUCAGGAAAUUGUGGAG", "bound/input enrichment [ratio]": 0.177}
{"Strand": "CAGCACCCCAUCAAACCAGUGGUUCAUCCAACUGCUACCCCAAGCACUGUUCCUUCCCGUCCAUUUACGCUACAGUCUGAUCACCAGCCAAAGAAAUCAUUUGAUGCUAAUGGAGCAUCU", "bound/input enrichment [ratio]": 0.376}
{"Strand": "AUCAUGGCUACAAACAGACCAGAUACACUGGAUCCUGCUUUGCUGCGCCCAGGAAGAUCCGACCGAAAAAUACAUAUCGAUUUACCAAAUGAACAAGCAAGAUUAGAUAUAUUGAAAAUC", "bound/input enrichment [ratio]": 3.74}
{"Strand": "CAGCAGCCACAGCCACUGAUGUCACAGCAGUUUGCACAGCCUCCAGGAGCUACCAAUAUGACCGGCUACAUGGGGCAGACUGCUUACCAGUACCCUCCCCCUCCCCCUCCCCCUCCUCCA", "bound/input enrichment [ratio]": 0.321}
{"Strand": "CUCUAGGCUUUUCAGAUGUGGAUCAUACCUAUGCUCAAAGAACUCAGCUCUUUGACACCUCCGUAAAUUUCUUUCCUGACAGCAUGACUCCUCCUAAAGGCAACCUGGUAGACCUGAUCA", "bound/input enrichment [ratio]": 0.593}
{"Strand": "CGCUGCCGCGUGGGUCAGUGGGUACGCAUGGAGAACGUGACAGUGCUGGGUGAGGACGUCACCGUUAAUGAUGAGCUCUACCUCAACGGAGCCAGCGUGCUGCCCCACAAGUCUAUUGGC", "bound/input enrichment [ratio]": 0.209}
{"Strand": "CCAGGCAUGAAAGUCCAAGUGCGGUAUGGACGAGGGAAAAAUCAAAAAAUGUAUGAAGCCCGUAUAAAAGAUUCUGAUGUCGAAGGUGGAGAGGCCCUUUACUUGGUGCAUUACUGCGGA", "bound/input enrichment [ratio]": 0.215}
{"Strand": "UCUUUUACCUCAUACUCACCUUAUGUAACAGAACUUAUAAUGGAAUCCAAUGUAGAGCUCACCGCAAAAAAUGACUUGCGCUUUAUAGAUGCUGUCUAUAAGCUUCUUCGUGAUCAAUUU", "bound/input enrichment [ratio]": 0.18}
{"Strand": "AAUUGUGGCGAAUCAGAAGGAUUGUCAUGGCAUGGUAGAAUGUAUAUUGCUUGUCUCUCUACCGAAUAAUUUAAAAAUGACCACACCGAACAAGACACCUCCUGGUGCUGAUCCUAAGCA", "bound/input enrichment [ratio]": 0.163}
{"Strand": "UAACGUUACAUAUCAUAGUGAAUGGUUUCCCCAGUGUAUAUGAAUGUUUUAAGUGUUUCCAACCGCUUAUGAAAUUUAGGAGCUUUCUAAUACUCGUUUUAUAAAUUUAAUCAUUUGCUA", "bound/input enrichment [ratio]": 1.56}
{"Strand": "UGAUCUUCUGCUCUUCCCACUUCCUCCCCUUUCUACUGCUCUCCCAUUUUCCCUUGCUGGGAGCCGCCACAUGCUCUUGCCCCCCAACCCUUGUAUAUGGGGACAGUGGGGUCAGUGCAG", "bound/input enrichment [ratio]": 0.21}
{"data": "Set 3", "target": "Phosphate system positive regulatory protein PHO4, full length, GST-tagged (PHO4, Saccharomyces cerevisiae, UniProt P07270, residues 1-312)", "method": "competition protein-binding microarray", "molecule type": "double-stranded DNA, one strand shown", "sample": "in vitro", "tested at": "2 µM", "notes": "whole 60-bp probe, lowest competitor level", "added": "Cbf1 competitor, 0.05 µM", "reading": "higher = stronger binding", "constant ends, left off below": "… GTCTTGATTCGCTTGACGCTGCTG", "Residues (chain)": "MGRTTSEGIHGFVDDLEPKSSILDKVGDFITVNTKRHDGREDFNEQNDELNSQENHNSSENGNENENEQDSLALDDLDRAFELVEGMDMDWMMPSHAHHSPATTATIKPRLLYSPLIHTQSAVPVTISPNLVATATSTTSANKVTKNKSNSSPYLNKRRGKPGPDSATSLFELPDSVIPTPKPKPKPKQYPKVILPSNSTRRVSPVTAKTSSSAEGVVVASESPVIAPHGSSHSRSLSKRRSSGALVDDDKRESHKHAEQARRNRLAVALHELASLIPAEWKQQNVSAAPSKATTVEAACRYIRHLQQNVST"}
{"Strand": "GGATTAATTGCGTATCAGCTGACAGAGGTAACAAAG", "fluorescence intensity [a.u.]": 3870}
{"Strand": "TGCGCAACAACTTGTCACCCTACTTTATGTCTAGAA", "fluorescence intensity [a.u.]": 3560}
{"Strand": "CGAGAATCAGGCACCCGCGTGTGAACGGCGTCATTC", "fluorescence intensity [a.u.]": 6930}
{"Strand": "ATCCCTTGCCCAAAGGGCGTGCAAACCGAGTCTAGC", "fluorescence intensity [a.u.]": 8190}
{"Strand": "CGTCCTAGTGATTGCAGGGTGGGTGCCATGAGGAAG", "fluorescence intensity [a.u.]": 7450}
{"Strand": "TGAACAGAAACAAATCACATGTTTCCTTGGCAGAAT", "fluorescence intensity [a.u.]": 10400}
{"Strand": "CTAACGAAGGTTTAACACGTGTTTTACAAGCCAAGT", "fluorescence intensity [a.u.]": 15700}
{"Strand": "CATCGTACAGGGGTTCATGTGCTGGTGCAGTAATTC", "fluorescence intensity [a.u.]": 6840}
{"Strand": "TATCAAAAGTACCAACACGGGGAAAGAGAGCCATCC", "fluorescence intensity [a.u.]": 7880}
{"Strand": "CCTGTTCTACATGTACTCGTGCTTTCTTTATTGCTT", "fluorescence intensity [a.u.]": 10300}
{"Strand": "CGTCCTAGTGATTTTCACGTGGTTTCCATGAGGAAG", "fluorescence intensity [a.u.]": 13600}
{"Strand": "AGGGCTGAGGCAGCGCACGTGTGAGCGCCGCTGAGG", "fluorescence intensity [a.u.]": 17100}
{"Strand": "GTCTTGTCTCATTGAGGAGTGGGTGTCCCCACTTCA", "fluorescence intensity [a.u.]": 5340}
{"Strand": "TTATAAGGTCGTTACTATCTTTATTGCAGTTAACAG", "fluorescence intensity [a.u.]": 3370}
{"Strand": "AAAGCGGTAATTTGTTTAGTGGGTGCAGATATCTAT", "fluorescence intensity [a.u.]": 3630}
{"Strand": "TGCGCAACAACTTGGGACGTGGGTGTATGTCTAGAA", "fluorescence intensity [a.u.]": 7220}
{"Strand": "AGTATCATAGGGTCCCACGTGCAAAGTCCACCGTCT", "fluorescence intensity [a.u.]": 20700}
{"data": "Set 4", "target": "RNA binding protein fox-1 homolog 2, RRM domain, GST-SBP tag (RBFOX2, Homo sapiens, UniProt O43251-10, residues 100-194)", "method": "RNA Bind-n-Seq", "molecule type": "RNA", "sample": "in vitro", "tested at": "365 nM", "notes": "natural RNA segment, single round, ends assumed", "reference": "no-protein control", "reading": "higher = stronger binding", "constant ends, left off below": "GGGAGUUCUACAGUCCGACGAUC … UGGAAUUCUCGGGUGCCAA"}
{"Strand": "GUACAGAUUGUGGGAAGAAGCAGAAACACAAUUCAGAACACCGUCUUCUCCACCCACAGUCCAACUCCACCCCAGACUUCCGUGUGUCAGAGCUAAGGGGAACACCGAGA", "RBNS enrichment (R)": 0.458}
{"Strand": "GCUUAAGGUUUUGUUAAAGAAGACGAUAGGUAUGGCUGGAUUAUAUAGUCUUCAGGUUCACAUGAACUUGGCUGUAUUCUGAUAACAUUGAGACCGUUUUCCACCAAGUU", "RBNS enrichment (R)": 0.499}
{"Strand": "UUUGCACGAAAACAGAAAUUCCAUAUCAAUGUGCCUUGCCCUGGAUAGUGAUUAUUUGUGGAAUUGUUGCACAUGCUCCUCAAUUGAAGGGGUUUUUUCCCUACUCAAGC", "RBNS enrichment (R)": 5.53}
{"Strand": "GUAGGCUGAGCUGAGAGGGGUGUUCUUUGGCAAGGUUCUCCCUCCUCUAGUUUCUCCCAGGAGCUGGUCCCAAAAGGUCCUCCCUCAGUGGUCUACUUGCAUAUCAUAGG", "RBNS enrichment (R)": 0.877}
{"Strand": "CUCUUCAUCUUGCGGGCCUCCUAGGACCCAGCCUUCCAAAGUCCUGGCUGACAGAUGCUGCUCUUGGGCACCUGUCCCCACCCCACCUGCCCUGCUGUCCUCUGUAUCAC", "RBNS enrichment (R)": 0.42}
{"Strand": "ACACUGAUUCAGGCCUUGAGAGUCAAGCCCAAGAGCUCCCUUGGCCCUGUUCCCCACUCCCUCCACUGGCCUCUGCUGUUCCUGUCUUUGCUCACACCCUCACAGCUGCU", "RBNS enrichment (R)": 0.736}
{"Strand": "UCUGCAUGAGUUCAAACCUGUCGUUCCUCCUUACAGUAGGAAUGGCACAUAUUGAGGCGAUCAUAAGUCUUAACUUUUCAAAAUUUUAAAUAAAAGACUUUGCACAUUGA", "RBNS enrichment (R)": 17.7}
{"Strand": "CCAGAAGGAGCAAUGGCACCUGGGCAGUGCCAGGGCUUAAAGCCCGCUGCUCCUUUUCGGUAGAGGAGAGGCCCAUCACUGGUGUGGUGGGGUGGGCUCUCCCUUAGGCU", "RBNS enrichment (R)": 0.407}
{"Strand": "ACUCGGAUAAUUUCUCCUAAGAGAAUUCCUUCAACAAAAGUGGAUCACUCAGACAGCACUUCCACGGACAAGUCCCUGUCAAAACUGACCCAUGCUGGUGGAGAACAGAC", "RBNS enrichment (R)": 0.766}
{"Strand": "CACCAAGGCUGAUUUAUGUUAUUGCUGGUCUUUUUAGGACAAUGGAUGCAGAAUGAGGUAGCAUUCGAGUUGGAACCAAGAAGACUCUAAUGAUGUAUGCCCACCUUUCA", "RBNS enrichment (R)": 3.5}
{"Strand": "CAGGAAAGAACCAUGAAAGACUUUGUGUUAGUGAAGGGUAUAACCGUGACACAGAGGCAGCUGUCAGCUGGCACCCACCUCGUCCCCCAGACCACCCUUCUUCCCAAGUG", "RBNS enrichment (R)": 0.376}
{"Strand": "CUGCCCCAAGGUUGUCAGAGUCAAGUCUGGGAGCAGAAAAGGGGUGAGUUUUCACAUCCCUGCAUCUUCUGCUUUGCAAUGAAGGUUCUGUCGGUGAGGCCUUCUCUAAU", "RBNS enrichment (R)": 0.55}
